Measured values of several laboratories.
Numbered parts are unrelated; each lists some results of a single study. Substitutions count along the parent as printed.

Series 1
Target: ABI1, truncated, D143A, DHFR fusion (Arabidopsis thaliana)
Method: DHFR PCA, deep sequencing
Sample: yeast
Setting: methotrexate growth selection, single substitutions
With: (+)-ABA 0.11 µM
Relative to: wild-type fitted maximum
Reading: higher = stronger binding
Parent: PYL1, truncated, DHFR fusion (Arabidopsis thaliana); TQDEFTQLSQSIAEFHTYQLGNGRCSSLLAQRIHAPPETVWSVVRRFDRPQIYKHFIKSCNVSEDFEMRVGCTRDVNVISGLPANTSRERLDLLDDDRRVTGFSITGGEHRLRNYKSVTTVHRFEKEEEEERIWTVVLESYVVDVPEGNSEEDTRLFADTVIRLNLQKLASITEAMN
Substitution | relative binding score [%]
R88M | 8.34
H55G | 19.1
F5N | -0.904
C72H | -0.342
L112P | 8.3
S150T | 51.3
V136W | 2.52
N165C | 4.19
T106K | -3.53
L28M | 23.6
G23M | 5.66
R98A | 6.82
E174Q | 10.9
S26D | -3.88
E67Q | 35.3
T119P | -6.52
N114P | 0.784

Series 2
Target: CREM, bZIP domain (human)
Method: DHFR protein complementation
Sample: yeast
Setting: single substitutions, most at no-binding floor
Relative to: wild-type JUN-FOS pair
Reading: higher = stronger binding
Parent: JUN, bZIP domain (human); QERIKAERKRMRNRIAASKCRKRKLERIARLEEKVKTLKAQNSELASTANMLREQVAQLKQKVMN; partner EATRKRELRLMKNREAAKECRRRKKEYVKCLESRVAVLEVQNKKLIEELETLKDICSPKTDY
Substitution | binding fitness [natural log]
R53H | -1.56
S43R | -1.39
L31W | -1.42
K36S | -1.54
S43N | -1.41
V35R | -1.43
K39C | -1.5
A57K | -1.49
S47L | -1.33
A49Y | -1.37
E33S | -1.37
E54W | -1.48
Q55Y | -1.54
S47E | -1.29
Q55T | -1.47
N42V | -1.5
Q41A | -1.48
S43P | -1.56
L45V | -1.65
R30N | -1.41
N42T | -1.56
A49L | -1.44
V35T | -1.52
S47W | -1.46
E32G | -1.51

Series 3
Target: Interferon regulatory factor 5, full length, phosphomimetic (IRF5, Homo sapiens, UniProt Q13568-2, residues 1-514, S451D/S453D/S456D/S462D)
Method: protein-binding microarray
Form: double-stranded DNA, one strand shown
Sample: in vitro
Concentration: 940 nM top
Setting: 60-bp whole probe
With: salmon DNA 0.4 mg/ml
Relative to: random background probes
Reading: higher = stronger binding
All sequences stand within: GCCTAGCAC … GTCTTGATTCGCTTGACGCTGCTG
Sequence | fitted relative affinity
GACGGTTTCGGGTTTCGGGTCGTGCTA | 10.8 z-score
TTAGGTCTCCTTTTCCCTTAGTGCTAG | 0.553 z-score
GACGGTTCCAGTTTCGAGACGTGCTAG | 4.28 z-score
GTGTATATGACAATGATGTTGTGCTAG | 0.153 z-score
TCAATTCTAGCCTATAGAACTGTGCTA | -0.123 z-score
TCATTTTTTTTTTTTCTACTGTGCTAG | 1.4 z-score
GACGAACTGGGGTATCGAGTCGTGCTA | 1.69 z-score
TTAGGTATCGGGTATCGGTGAGTGCTA | 7.1 z-score
GACGGACTGGGCACTGGGGACGTGCTA | -0.753 z-score
TCATGCTTCTGTATTCAACTGTGCTAG | 0.404 z-score
GACGATCGCAGACTGGAGACGTGCTAG | -0.974 z-score
TGCTTTTTAGAAATTTTTTTTGTGCTA | 0.562 z-score
GACGCTTTCGACTATCGGGACGTGCTA | 2.82 z-score
TTAGGTTTCAGTTTCGATTAGTGCTAG | 11.4 z-score
TTACGACTGGACTTTCGGTTAGTGCTA | 3.1 z-score
GACGGTATCCGTTTCGGGACGTGCTAG | 1.41 z-score
CACGGTATCGGGTTTCGGGACGTGCTA | 4.98 z-score
TTAGGTTCCGGGTATCGGTTAGTGCTA | 4.01 z-score
TGAGGTTTCGGTTTCGGTTAGTGCTAG | 14.6 z-score
TCAATTTTCTGAATGTCACTGTGCTAG | 0.468 z-score
TTAGGACTGCTTATACTTTAGTGCTAG | -0.116 z-score
TCAAATTTTTTTCTAAGACTGTGCTAG | 0.472 z-score
GACGATATCGGGACTGGAGACGTGCTA | -0.32 z-score
TTAGGTTTAGGGACTGGGTTAGTGCTA | 0.24 z-score
TTAGGACTGGGACTGGGGTAGTGCTAG | -0.266 z-score

Series 4
Target: RNA binding protein fox-1 homolog 2, RRM domain, GST-SBP tag (RBFOX2, Homo sapiens, UniProt O43251-10, residues 100-194)
Method: RNA Bind-n-Seq
Form: RNA
Sample: in vitro
Concentration: 365 nM
Setting: natural RNA segment, single round, ends assumed
Relative to: no-protein control
Reading: higher = stronger binding
Construct (chain): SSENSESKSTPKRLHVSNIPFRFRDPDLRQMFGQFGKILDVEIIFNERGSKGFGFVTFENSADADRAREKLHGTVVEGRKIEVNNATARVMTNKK
Sequence | RBNS enrichment (R)
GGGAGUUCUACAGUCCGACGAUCAAAUACUAAACGCCAAGAGUUGAGCCUGUGGGUCUCUCCAUAAGAGUUUUAAAACUCUUGCCAGUUACCACUUUAUCCAAUUUGCUAUCAUUUUCGUAUUAUCAGCUAUCUGGAAUUCUCGGGUGCCAA | 0.616
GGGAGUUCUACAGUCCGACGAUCCUUCCUUCAUCCCAUAUGUAGGUAGCCUUGCUUGACAAAUGUUUCUUCUAACUCUCCUUCUUCUGAAUUGUGCAGAGACUCUGUUAACUUCCCUUUUUGCACUUAGAUAAUGGAAUUCUCGGGUGCCAA | 0.34
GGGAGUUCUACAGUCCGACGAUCGGCCAGUGGGGAGCUGGAAAAAACAAGGCAGCCUUUAGGAAGGCCAUGGUGCAUGUGUGUGCAUGCGUGUAUGUGCAGCCGCCCUCCCUCACUUCAGGAGCAAGCUGUUUUGGAAUUCUCGGGUGCCAA | 3.39
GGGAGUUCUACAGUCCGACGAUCGGGCCCCUUUUCCGAAGCCACUUCCAGGCCAAGGCAGUCGCCAGGGCUUCUUGUCCCCACCUUCUGAACCUUCUUCAAACAGUAGUACAAGCUCCCCUCAGCCAGCCUGCUGGAAUUCUCGGGUGCCAA | 0.305
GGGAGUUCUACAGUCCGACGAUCUGUCCUGCCAUUAAGAGAGGUCAGGAUUGCACCUGAAGGGUAUGGUGGGCACCCAGGCUGUGAAGGAACAAGAUGAGUGGAGCGGCCAGCAGUGGCAAGUCAAGGGAAGCUGGAAUUCUCGGGUGCCAA | 0.921
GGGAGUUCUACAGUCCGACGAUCAGCCAUUGAAAGCUCAUUACCAGUAGGACAUAAUUUUUGGCUCUCCCUAUUCACAACCAGUGCACAGUUUGACACAGUGGCCUCAGGUUCACAGUGCACCAUGUCACUGUUGGAAUUCUCGGGUGCCAA | 0.236
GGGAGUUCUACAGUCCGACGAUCCUGCGGCCCGCCCAUCUGCGCUAGCUGGCCUUCACGCUCUUGAUCGUCUUUCCUUUGUAUUGGAGAAGGACUGGGUCAGAGAUCUGUUGGAGAGAGAGAAUAAAGAGAUUUGGAAUUCUCGGGUGCCAA | 0.534
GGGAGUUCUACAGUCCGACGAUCCCCUGCUCCCCCUUUUUUCAAGUGCCUUAAUAGCAGGGCAAACUGUAGAGUCAGGAGGGCAGGCUAGAUGCUCAGCCACAAGACAGCCUUUACUGAAAAAGCUAUUGGACUGGAAUUCUCGGGUGCCAA | 0.297
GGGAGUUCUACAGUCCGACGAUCAGGAAGUUGCUAUUGGCCACAUAACUAGGCUUCCAUGUUGUACAGCAGUGAGUGGUUCCAUAUGGCUCUGUUCAAACUGAGCACAUUUUGCCUUUUUUCUUUCUUUUCUUUGGAAUUCUCGGGUGCCAA | 0.513
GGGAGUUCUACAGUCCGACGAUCUGCAGUGUGUCAUUUGAAAAGAGAUUUGAAGAACUGACAGCUUAAAGCCCAAGCGGGAAACCCGCCCGGGAACUGUUCGCAGUUGACAACAAACUCUGACGCCCUCUGUUUGGAAUUCUCGGGUGCCAA | 0.331
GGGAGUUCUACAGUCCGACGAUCCCUGAGCACAAGAAGCAGUAAGUUGGCACCUUGCCACACUGUUGGUUGGGCCCAGGUGCUGCUCAGCCAGGAAACGAGAGCAAACACUCCAGGGCCUUUGCAAGCCCAUCUGGAAUUCUCGGGUGCCAA | 0.282
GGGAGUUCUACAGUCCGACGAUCGGUUUUUUUAAGUUAUUUUAAAAAUCUAGCUUCCCUUUUUGAUUAAGAUUGCCAUCUUGCUUUUAGGCAAAACAAACCAAUUAACAAACAACCACAAGAAAGGGAGAAGAUGGAAUUCUCGGGUGCCAA | 0.423

Series 5
Target: CCND1, cyclin fold, Cln2 fusion (human)
Method: yeast growth competition, sequencing
Sample: yeast
Setting: weak parent motif
Relative to: not given
Reading: higher = stronger binding
Parent: BRCA2 docking peptide (human); PSIKRNLLNEFDR; partner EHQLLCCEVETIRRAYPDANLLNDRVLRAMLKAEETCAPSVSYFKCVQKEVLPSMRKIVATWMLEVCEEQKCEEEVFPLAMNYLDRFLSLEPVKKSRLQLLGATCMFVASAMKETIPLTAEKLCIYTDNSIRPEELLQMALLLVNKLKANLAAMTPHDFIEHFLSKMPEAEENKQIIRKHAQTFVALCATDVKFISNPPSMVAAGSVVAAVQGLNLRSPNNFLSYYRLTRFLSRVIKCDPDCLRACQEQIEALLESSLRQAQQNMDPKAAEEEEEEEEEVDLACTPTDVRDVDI
Substitution | normalised enrichment score
PSIKRNLLNEFSR [D12S] | 0.441
PSIKRNSLNEFDR [L7S] | -0.206
PSIKGNLLNEFDR [R5G] | -0.115
PSIKRNLLNEVDR [F11V] | 0.786
QSIKRNLLNEFDR [P1Q] | 1.07
PSSKRNLLNEFDR [I3S] | 0.524
PSIKRELLNEFDR [N6E] | 0.416
PSIKRNLLNEYDR [F11Y] | 0.361
PSIKRYLLNEFDR [N6Y] | 0.114
PSIKRNLLEEFDR [N9E] | 0.641
PSIKRNLLWEFDR [N9W] | 0.905
PYIKRNLLNEFDR [S2Y] | 0.317
PSIKRNLLSEFDR [N9S] | 0.764
PSIKRNLLNGFDR [E10G] | -0.0695
GSIKRNLLNEFDR [P1G] | 0.422
PSIKRPLLNEFDR [N6P] | 0.684
PRIKRNLLNEFDR [S2R] | -0.0156
PSIKRLLLNEFDR [N6L] | 0.0335

Excerpt of the above (series 1):
Substitution | relative binding score [%]
G23M | 5.66
R98A | 6.82
E174Q | 10.9
S26D | -3.88
E67Q | 35.3
